Experimental data pooled from the literature.
Parts stem from different laboratories: compare values within a part only. Substitutions count along the parent as printed.

Set 1 — target: CCND1, cyclin fold, Cln2 fusion (human); method: yeast growth competition, sequencing; sample: yeast; setting: strong parent motif; reference: not given; direction: higher = stronger binding
Starting sequence: SCAPER docking peptide (human); SNARRSLNFGGST; partner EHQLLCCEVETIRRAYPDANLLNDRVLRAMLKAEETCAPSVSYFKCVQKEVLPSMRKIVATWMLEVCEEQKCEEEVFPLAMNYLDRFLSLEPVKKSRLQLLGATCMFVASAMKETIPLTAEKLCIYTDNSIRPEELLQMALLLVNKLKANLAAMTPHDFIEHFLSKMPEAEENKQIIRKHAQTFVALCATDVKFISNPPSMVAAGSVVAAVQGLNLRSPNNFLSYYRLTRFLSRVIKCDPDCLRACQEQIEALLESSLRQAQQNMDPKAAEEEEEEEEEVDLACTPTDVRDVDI
Substitution	normalised enrichment score
SNARRSINFGGST [L7I]	0.153
SNAQRSLNFGGST [R4Q]	0.0642
SNARRSLNFGHST [G11H]	0.257
SNARRSLCFGGST [N8C]	0.471
SNARRSLNFGGIT [S12I]	1.23
SNARRQLNFGGST [S6Q]	2.42
SNARRSLNRGGST [F9R]	-0.00943
SNARRILNFGGST [S6I]	1.19
SNARRSLNFGGVT [S12V]	0.829
SNARRSLNKGGST [F9K]	-0.319
SNWRRSLNFGGST [A3W]	0.108
SNARRYLNFGGST [S6Y]	1.03
SNARRSLNFQGST [G10Q]	0.605
SVARRSLNFGGST [N2V]	0.72
SNARQSLNFGGST [R5Q]	0.293
SNATRSLNFGGST [R4T]	0.774
SSARRSLNFGGST [N2S]	1.42
SMARRSLNFGGST [N2M]	0.323
SNARKSLNLGGST [R5K F9L]	-0.193
SNARRSLNFGGSK [T13K]	0.906
SNARRSLNFGGNT [S12N]	1.2
SNANRSLNFGGST [R4N]	0.639
SNARRGLNFGGST [S6G]	0.608
SNARRSLNDGGST [F9D]	0.101
SNARRSLNFVGST [G10V]	-0.44

Set 2 — method: protein-binding microarray; molecule type: double-stranded DNA, one strand shown; sample: in vitro; concentration: 2200 nM top; setting: 60-bp whole probe; together with: salmon DNA 0.4 mg/ml; reference: random background probes; direction: higher = stronger binding; shared flanks, not repeated: GCCTAGCAC … GTCTTGATTCGCTTGACGCTGCTG
Target: Interferon regulatory factor 7, full length, phosphomimetic (IRF7, Homo sapiens, UniProt Q92985, residues 1-503, S471D/S472D/S475D/S476D/S477D/S483D/S484D/S487D)
Residues (chain): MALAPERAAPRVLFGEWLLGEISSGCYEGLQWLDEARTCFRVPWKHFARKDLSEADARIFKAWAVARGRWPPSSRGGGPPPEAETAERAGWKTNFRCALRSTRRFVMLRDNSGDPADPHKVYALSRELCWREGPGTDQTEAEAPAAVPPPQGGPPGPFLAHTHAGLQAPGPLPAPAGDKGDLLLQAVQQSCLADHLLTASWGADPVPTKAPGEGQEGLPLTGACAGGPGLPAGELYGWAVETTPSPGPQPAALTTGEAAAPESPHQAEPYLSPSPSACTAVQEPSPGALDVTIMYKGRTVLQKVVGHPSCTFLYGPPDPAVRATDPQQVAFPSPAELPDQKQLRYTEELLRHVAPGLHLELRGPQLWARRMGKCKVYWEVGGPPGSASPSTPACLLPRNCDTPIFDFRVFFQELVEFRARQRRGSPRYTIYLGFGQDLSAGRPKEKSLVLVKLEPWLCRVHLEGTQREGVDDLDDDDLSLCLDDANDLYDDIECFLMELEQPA
Strand	fitted relative affinity
GAGGGTTTCGACTATCGGGACGTGCTA	1.58 z-score
GACGGACTGGGACTGGGGTCGTGCTAG	-0.841 z-score
TAGAACTTCTCCACTGAATGAGTGCTA	-0.0154 z-score
TTCGAACTGAGTCTCGATTAGTGCTAG	0.152 z-score
TTCGGTTTCCTTATCCTTTAGTGCTAG	4.66 z-score
GTTCTTTTCAGTCCCCTCTTGTGCTAG	2.77 z-score
TCAAATCTCAGCCTCCGACTGTGCTAG	0.19 z-score
TAAGGTTTCCTTATCCTTTAGTGCTAG	1.63 z-score
TCATTCCTGAAATCTCTTACTGTGCTA	1.22 z-score
TCAATGATTGGTTGAACACTGTGCTAG	0.192 z-score
GAGGATTTCGGGTTTCGAGACGTGCTA	4.15 z-score
TCAATATTCTGCTTTGCACTGTGCTAG	1.15 z-score
GACGATTTCGGCACTGGAGACGTGCTA	0.524 z-score
TTAGGTATACTTCTCCTTTAGTGCTAG	0.93 z-score
TTAGTACTGCTTCTCCTTTAGTGCTAG	1.99 z-score
TTAGGACAGGACTATCGGTTAGTGCTA	-0.254 z-score
GACGGTTTCGACACAGGGGACGTGCTA	2.93 z-score
TTAGGTATCGGGTATCCGTTAGTGCTA	0.367 z-score

Set 3 — method: RNA Bind-n-Seq; molecule type: RNA; sample: in vitro; concentration: 200 nM; setting: whole 134-nt RNA, ends assumed; together with: 150 mM LiCl; reference: input library; direction: higher = stronger binding; library: 7-deaza-guanosine replaces G
Target: Ras GTPase-activating protein-binding protein 1, full length (G3BP1, Homo sapiens, UniProt Q13283)
Chain of UniProt Q13283 (whole entry, looked up): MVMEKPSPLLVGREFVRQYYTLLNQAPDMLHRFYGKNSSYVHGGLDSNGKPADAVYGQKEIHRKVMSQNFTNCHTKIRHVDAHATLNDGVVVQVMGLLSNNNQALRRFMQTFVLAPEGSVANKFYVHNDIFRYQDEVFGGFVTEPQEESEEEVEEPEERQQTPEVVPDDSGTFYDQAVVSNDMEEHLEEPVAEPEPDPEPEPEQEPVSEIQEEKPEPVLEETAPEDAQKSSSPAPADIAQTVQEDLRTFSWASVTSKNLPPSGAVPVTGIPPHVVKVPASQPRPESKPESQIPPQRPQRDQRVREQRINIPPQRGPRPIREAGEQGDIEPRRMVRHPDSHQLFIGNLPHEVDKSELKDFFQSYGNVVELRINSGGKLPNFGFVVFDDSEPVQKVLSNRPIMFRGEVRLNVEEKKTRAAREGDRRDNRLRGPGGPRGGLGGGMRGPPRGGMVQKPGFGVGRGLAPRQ
Shared flanks, not repeated: GGGAGUUCUACAGUCCGACGAUC … UGGAAUUCUCGGGUGUCAAGG
Strand	log2 enrichment
AGUCCUGUGCUACACAUCGUAUGUACCGAAUCGGAAAAGGGGAAAAGGGAAAAGGGGAAAGUAUUAUGUUACGCCGUUCGGAUCUGCACU	-0.464
AAGUCCUGUGCUACACAUCGUAUGUACCGAAUCGGGGAAAGGGGAAAGGGGAAAGGGAAAGUAUUAUGUUACGCCGUUCGGAUCUGCACU	0.821
UGGGAGGUGGAUUUUGUUUAUUUUUUUAGCUCAUUUCCAGGGGUGGGAAUUUUUGUUUAAUAUGUGUCAUGAAUAAAGUUGUUUUUGAAA	-0.67
CCUGUGCUACACAUCGUAUGUACCGAAUCGGGGUUUUUUGGGGUUUUUUGGUUUUUUGGGGAAAGUAUUAUGUUACGCCGUUCGGAUCUG	0.633
UGGGAGGUGGAUUUUGUUUAUUUUUUUAGCUCAUUUCCAGGGGUGGGAAUUUUUUUUUAAUAUGUGUCAAGAAUAAAGUUGUUUUUGAAA	-0.352
CCUCAAGUCCUGUGCUACACAUCGUAUGUACCGAAUCGGGCGGCGGGCGGGGAAAGUAUUAUGUUACGCCGUUCGGAUCUGCACUUCCAG	0.488
GUCCUGUGCUACACAUCGUAUGUACCGAAUCGGCCCCCGGGCCCCCGGGGCCCCCGGGAAAGUAUUAUGUUACGCCGUUCGGAUCUGCAC	-1.85
CCUGUGCUACACAUCGUAUGUACCGAAUCGGAAAAAAAGGGAAAAAAAGGGAAAAAAAGGGAAAGUAUUAUGUUACGCCGUUCGGAUCUG	0.0218

Set 4 — method: universal PBM; molecule type: double-stranded DNA, one strand shown; sample: in vitro; concentration: not given; direction: higher = stronger binding
Target: Sal-like protein 4, full length isoform B (SALL4, Homo sapiens, UniProt Q9UJQ4-2, residues 1-616)
Setting: 8-mer, flanks averaged, mean of replicates
Strand	E-score
CGATTAGA	0.0758
CCCCACCC	-0.0611
AAAAGCGT	0.118
ACACCCCT	-0.0402
TAGTTCGA	0.0931
AAGAGCCT	0.00465
GTGAACAA	0.00846
ACGTTGCC	-0.0872
CTCTACAC	-0.13
CGGGCACA	-0.327
GGCAGGCA	-0.18
AGTCCAGG	-0.243
CTAGTCAA	0.0191
CGCAAGTA	0.119
AGGTGGCA	-0.106
CAAACGCG	-0.152
CGTCATAC	0.158
AATTGAGA	0.162
AGGTTGCC	-0.218
AGGCCATA	-0.0505
CCGTCCGC	-0.346

Excerpt of the above (set 1):
Substitution	normalised enrichment score
SSARRSLNFGGST [N2S]	1.42
SMARRSLNFGGST [N2M]	0.323
SNARKSLNLGGST [R5K F9L]	-0.193
SNARRSLNFGGSK [T13K]	0.906
SNARRSLNFGGNT [S12N]	1.2
SNANRSLNFGGST [R4N]	0.639
SNARRGLNFGGST [S6G]	0.608
